Results from different studies.
A part holds a random share of what one study measured. Positions count from the first letter of the parent shown.
UniProt Q9UQB9, sequence (whole entry, looked up): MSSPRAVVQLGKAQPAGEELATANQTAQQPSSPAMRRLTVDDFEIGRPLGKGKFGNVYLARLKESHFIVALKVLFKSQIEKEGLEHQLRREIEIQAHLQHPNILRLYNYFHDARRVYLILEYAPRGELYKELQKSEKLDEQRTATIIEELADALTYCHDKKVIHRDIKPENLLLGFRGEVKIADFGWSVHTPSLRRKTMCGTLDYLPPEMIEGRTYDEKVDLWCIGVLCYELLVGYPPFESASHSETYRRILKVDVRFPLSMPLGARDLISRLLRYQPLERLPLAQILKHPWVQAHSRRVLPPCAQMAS
UniProt P48730, sequence (whole entry, looked up): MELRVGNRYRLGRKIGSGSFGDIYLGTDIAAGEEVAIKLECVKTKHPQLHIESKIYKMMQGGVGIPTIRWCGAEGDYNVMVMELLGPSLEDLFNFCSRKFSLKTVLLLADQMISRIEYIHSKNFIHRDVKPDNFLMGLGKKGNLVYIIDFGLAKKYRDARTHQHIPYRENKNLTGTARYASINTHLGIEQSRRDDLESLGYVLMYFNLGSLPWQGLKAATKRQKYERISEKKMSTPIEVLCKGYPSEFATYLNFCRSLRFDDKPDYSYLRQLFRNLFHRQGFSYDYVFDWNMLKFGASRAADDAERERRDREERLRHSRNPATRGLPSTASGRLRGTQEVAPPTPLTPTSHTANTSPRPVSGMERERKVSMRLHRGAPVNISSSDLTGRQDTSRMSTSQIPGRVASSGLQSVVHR
UniProt Q8IYT8, sequence (whole entry, looked up): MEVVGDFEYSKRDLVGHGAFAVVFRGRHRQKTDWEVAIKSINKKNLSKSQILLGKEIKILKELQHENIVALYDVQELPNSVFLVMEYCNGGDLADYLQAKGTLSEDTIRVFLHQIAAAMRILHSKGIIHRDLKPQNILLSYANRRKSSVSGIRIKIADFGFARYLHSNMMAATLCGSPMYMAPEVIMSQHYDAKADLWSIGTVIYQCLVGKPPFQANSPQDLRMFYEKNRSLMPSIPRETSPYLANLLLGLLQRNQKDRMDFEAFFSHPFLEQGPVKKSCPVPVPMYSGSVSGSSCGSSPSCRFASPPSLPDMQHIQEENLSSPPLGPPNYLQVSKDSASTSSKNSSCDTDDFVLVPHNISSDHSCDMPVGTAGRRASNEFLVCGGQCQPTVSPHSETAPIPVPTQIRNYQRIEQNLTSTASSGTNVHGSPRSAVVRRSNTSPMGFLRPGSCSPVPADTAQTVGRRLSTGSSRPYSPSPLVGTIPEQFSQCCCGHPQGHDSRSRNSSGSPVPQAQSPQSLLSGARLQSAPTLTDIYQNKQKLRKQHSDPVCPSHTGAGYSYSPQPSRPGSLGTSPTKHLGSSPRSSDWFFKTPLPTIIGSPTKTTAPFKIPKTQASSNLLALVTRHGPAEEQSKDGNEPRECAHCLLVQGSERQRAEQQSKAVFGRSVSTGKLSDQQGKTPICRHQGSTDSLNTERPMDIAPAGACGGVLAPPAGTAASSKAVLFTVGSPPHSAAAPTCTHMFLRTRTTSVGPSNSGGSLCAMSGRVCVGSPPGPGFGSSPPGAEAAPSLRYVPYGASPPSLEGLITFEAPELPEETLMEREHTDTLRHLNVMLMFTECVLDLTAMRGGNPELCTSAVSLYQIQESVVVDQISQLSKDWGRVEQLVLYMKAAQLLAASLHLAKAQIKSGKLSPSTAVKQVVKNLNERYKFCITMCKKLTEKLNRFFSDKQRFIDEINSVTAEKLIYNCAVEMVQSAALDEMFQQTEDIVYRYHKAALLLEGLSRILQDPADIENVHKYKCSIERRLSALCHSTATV
UniProt Q9H3Y6, sequence (whole entry, looked up): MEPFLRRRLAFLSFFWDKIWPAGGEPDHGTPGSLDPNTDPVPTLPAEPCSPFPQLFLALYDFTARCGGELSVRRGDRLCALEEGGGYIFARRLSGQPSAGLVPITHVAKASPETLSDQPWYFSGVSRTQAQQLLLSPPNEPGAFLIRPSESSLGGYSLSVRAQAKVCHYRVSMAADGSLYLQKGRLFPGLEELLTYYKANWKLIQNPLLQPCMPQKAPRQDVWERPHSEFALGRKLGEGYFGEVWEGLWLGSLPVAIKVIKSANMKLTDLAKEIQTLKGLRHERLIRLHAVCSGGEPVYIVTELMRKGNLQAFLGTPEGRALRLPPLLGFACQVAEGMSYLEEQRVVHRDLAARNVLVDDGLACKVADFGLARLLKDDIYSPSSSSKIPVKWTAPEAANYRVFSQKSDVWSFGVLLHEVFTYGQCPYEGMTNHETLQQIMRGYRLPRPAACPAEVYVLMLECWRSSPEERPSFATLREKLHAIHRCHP
UniProt Q16659, sequence (whole entry, looked up): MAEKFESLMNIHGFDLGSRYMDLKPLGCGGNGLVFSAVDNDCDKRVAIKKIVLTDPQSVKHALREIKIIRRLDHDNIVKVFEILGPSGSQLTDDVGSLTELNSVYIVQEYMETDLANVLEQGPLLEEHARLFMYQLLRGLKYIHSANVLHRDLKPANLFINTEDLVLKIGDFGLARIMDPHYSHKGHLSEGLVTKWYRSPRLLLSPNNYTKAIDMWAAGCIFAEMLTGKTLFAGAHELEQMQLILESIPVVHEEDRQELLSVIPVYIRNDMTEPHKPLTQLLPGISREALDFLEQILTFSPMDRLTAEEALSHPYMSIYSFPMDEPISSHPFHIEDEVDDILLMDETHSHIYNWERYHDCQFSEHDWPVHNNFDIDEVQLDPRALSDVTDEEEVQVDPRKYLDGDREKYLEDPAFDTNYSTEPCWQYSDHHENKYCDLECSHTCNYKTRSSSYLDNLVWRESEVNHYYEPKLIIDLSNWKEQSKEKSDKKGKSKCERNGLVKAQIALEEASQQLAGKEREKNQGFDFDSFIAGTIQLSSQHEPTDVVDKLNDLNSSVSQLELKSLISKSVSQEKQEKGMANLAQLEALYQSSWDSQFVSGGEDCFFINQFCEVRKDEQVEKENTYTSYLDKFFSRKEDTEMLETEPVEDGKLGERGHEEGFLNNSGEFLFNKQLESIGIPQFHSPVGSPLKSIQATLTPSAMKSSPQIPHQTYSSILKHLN
UniProt Q14680, sequence (whole entry, looked up): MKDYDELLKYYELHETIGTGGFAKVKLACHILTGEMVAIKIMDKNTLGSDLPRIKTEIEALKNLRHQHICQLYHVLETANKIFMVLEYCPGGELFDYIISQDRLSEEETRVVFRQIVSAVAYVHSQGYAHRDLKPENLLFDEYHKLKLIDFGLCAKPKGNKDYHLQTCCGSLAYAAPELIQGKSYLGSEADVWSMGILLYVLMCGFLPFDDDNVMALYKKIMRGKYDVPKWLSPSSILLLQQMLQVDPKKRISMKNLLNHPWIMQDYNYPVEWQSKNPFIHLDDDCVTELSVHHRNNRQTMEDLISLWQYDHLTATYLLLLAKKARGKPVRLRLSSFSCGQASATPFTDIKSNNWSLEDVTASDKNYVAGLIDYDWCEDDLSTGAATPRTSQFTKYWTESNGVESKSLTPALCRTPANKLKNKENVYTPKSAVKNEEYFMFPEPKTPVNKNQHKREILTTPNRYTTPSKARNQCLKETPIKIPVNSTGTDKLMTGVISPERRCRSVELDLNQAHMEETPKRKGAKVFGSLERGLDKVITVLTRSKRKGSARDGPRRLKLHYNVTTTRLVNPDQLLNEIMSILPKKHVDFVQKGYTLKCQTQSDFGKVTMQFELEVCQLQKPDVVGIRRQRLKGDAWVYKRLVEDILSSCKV
UniProt O75582, sequence (whole entry, looked up): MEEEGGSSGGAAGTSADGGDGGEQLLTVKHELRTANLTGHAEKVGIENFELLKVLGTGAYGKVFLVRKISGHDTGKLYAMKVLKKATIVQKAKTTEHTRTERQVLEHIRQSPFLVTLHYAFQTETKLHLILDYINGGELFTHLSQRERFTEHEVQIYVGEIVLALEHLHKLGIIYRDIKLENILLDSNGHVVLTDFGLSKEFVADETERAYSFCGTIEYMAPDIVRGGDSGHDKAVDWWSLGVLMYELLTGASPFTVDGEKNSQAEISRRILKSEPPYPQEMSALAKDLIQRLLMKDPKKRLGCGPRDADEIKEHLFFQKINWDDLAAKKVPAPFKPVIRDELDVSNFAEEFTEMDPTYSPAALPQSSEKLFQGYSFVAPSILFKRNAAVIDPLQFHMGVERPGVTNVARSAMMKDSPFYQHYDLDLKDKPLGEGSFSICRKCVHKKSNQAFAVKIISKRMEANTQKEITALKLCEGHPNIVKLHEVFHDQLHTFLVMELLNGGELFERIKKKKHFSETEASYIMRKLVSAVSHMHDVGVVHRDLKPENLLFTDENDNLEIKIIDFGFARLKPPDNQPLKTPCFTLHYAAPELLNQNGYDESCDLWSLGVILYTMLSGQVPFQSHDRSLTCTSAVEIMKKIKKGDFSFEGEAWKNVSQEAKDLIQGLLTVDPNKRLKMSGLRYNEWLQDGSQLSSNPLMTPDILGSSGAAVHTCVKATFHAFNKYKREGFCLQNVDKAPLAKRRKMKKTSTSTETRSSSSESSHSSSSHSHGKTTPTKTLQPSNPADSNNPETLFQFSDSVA
UniProt Q9HBY8, sequence (whole entry, looked up): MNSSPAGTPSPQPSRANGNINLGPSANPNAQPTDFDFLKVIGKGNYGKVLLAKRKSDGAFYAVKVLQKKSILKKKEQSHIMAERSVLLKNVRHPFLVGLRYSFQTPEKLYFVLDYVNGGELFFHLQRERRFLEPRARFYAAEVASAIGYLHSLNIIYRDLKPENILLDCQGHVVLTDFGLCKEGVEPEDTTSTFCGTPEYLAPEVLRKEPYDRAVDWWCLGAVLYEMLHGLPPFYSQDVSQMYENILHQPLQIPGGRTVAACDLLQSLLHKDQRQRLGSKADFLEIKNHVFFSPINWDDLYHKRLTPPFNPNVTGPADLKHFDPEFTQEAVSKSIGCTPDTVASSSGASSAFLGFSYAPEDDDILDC

Block 1 — tested at: 0.1 µM
SMILES: CS(=O)(=O)N1CCCC(NC(=O)[C@H](CCC2CCCCC2)NC(=O)c2ccc(CNc3ncnc4c3nnn4-c3ccccc3)cc2)C1 (some centres unmarked)
It gave 100% for remaining binding (Serine/threonine-protein kinase ULK2 (ULK2, Homo sapiens, UniProt Q8IYT8); cell-free assay, competition with immobilised ligand).
The remaining binding was 96% (Casein kinase I isoform delta (CSNK1D, Homo sapiens, UniProt P48730); cell-free assay, competition with immobilised ligand).
Tyrosine-protein kinase Srms (SRMS, Homo sapiens, UniProt Q9H3Y6); cell-free assay, competition with immobilised ligand — remaining binding: 98%.
Cytoplasmic tyrosine-protein kinase BMX (BMX, Homo sapiens, UniProt P51813); cell-free assay, competition with immobilised ligand — remaining binding: 79%.
For Ribosomal protein S6 kinase alpha-5, C-terminal kinase domain (RPS6KA5, Homo sapiens, UniProt O75582); cell-free assay, competition with immobilised ligand: remaining binding read 95%.
It gave 100% for remaining binding (SRSF protein kinase 3 (SRPK3, Homo sapiens, UniProt Q9UPE1); cell-free assay, competition with immobilised ligand).
It gave 100% for remaining binding (5'-AMP-activated protein kinase catalytic subunit alpha-2 (PRKAA2, Homo sapiens, UniProt P54646); cell-free assay, competition with immobilised ligand).
It gave 100% for remaining binding (Serine/threonine-protein kinase Sgk2 (SGK2, Homo sapiens, UniProt Q9HBY8); cell-free assay, competition with immobilised ligand).
For Mitogen-activated protein kinase kinase kinase kinase 2 (MAP4K2, Homo sapiens, UniProt Q12851); cell-free assay, competition with immobilised ligand: remaining binding read 100%.
It gave 100% for remaining binding (Maternal embryonic leucine zipper kinase (MELK, Homo sapiens, UniProt Q14680); cell-free assay, competition with immobilised ligand).
Aurora kinase C (AURKC, Homo sapiens, UniProt Q9UQB9); cell-free assay, competition with immobilised ligand — remaining binding: 78%.
For Serine/threonine-protein kinase 32A (STK32A, Homo sapiens, UniProt Q8WU08); cell-free assay, competition with immobilised ligand: remaining binding read 57%.
The remaining binding was 100% (Serine/threonine-protein kinase SIK1 (SIK1, Homo sapiens, UniProt P57059); competition binding).
For Tyrosine-protein kinase Fer (FER, Homo sapiens, UniProt P16591); cell-free assay, competition with immobilised ligand: remaining binding read 86%.
It gave 94% for remaining binding (Mitogen-activated protein kinase 6 (MAPK6, Homo sapiens, UniProt Q16659); cell-free assay, competition with immobilised ligand).

Block 2 — target: FOS, bZIP domain (human); method: DHFR protein complementation; sample: yeast; baseline: wild-type JUN-FOS pair; direction: higher = stronger binding
Notes: single substitutions, most at no-binding floor
Starting sequence: JUN, bZIP domain (human); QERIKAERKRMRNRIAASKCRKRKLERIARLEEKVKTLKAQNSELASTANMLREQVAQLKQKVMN; partner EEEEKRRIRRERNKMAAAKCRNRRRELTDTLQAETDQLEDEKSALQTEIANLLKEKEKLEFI
The binding fitness of `Q41W` is reported as -1.02 natural log.
With `L38D` the binding fitness was -1.21 natural log.
For `L38C`, the binding fitness was -1.28 natural log.
`L52N` gave a binding fitness of -1.29 natural log.
`Q55D` gave a binding fitness of -0.375 natural log.
For `S43M`, the binding fitness was 0.0134 natural log.
For `E44Y`, the binding fitness was -0.349 natural log.
`L45G` gave a binding fitness of -1.24 natural log.

Block 3 — read-out: enzyme activity; action: inhibitor; tested at: 0.5 µM; baseline: control
Target: Cyclin-dependent kinase 2, with cyclin A (CDK2, Homo sapiens, UniProt P24941)
With `CO[C@H]1C[C@@H]2CC[C@@H](C)[C@@](O)(O2)C(=O)C(=O)N2CCCC[C@H]2C(=O)O[C@H]([C@H](C)C[C@@H]2CC[C@@H](O)[C@H](OC)C2)CC(=O)[C@H](C)/C=C(\C)[C@@H](O)[C@@H](OC)C(=O)[C@H](C)C[C@H](C)/C=C/C=C/C=C/1C` the remaining activity was 101%.
With `COc1cc2ncnc(Nc3ccc(F)c(Cl)c3)c2cc1OCCCN1CCOCC1` the remaining activity was 95.9%.
For `O=c1c2ccccc2[nH]c(=S)n1CCN1CCC(=C(c2ccc(F)cc2)c2ccc(F)cc2)CC1`, the remaining activity was 99.9%.
`COc1ccc(CNC(=O)Nc2ncc([N+](=O)[O-])s2)cc1` gave a remaining activity of 93.3%.
`COc1cc2ncnc(Nc3ccc(Oc4ccccc4)cc3)c2cc1OC` has a remaining activity of 100%.
For `O=C1NC(=O)C(c2cn(CCCO)c3ncccc23)=C1c1cnccn1`, the remaining activity was 94.8%.
The remaining activity of `Nc1ncnc2n[nH]c(Nc3ccc(F)cc3)c12` is reported as 88.7%.
The remaining activity of `COc1ccc(OC)c2c(=S)c3ccccc3[nH]c12` is reported as 88.6%.
`C#Cc1cccc(Nc2ncnc3cc(OCCOC)c(OCCOC)cc23)c1` gave a remaining activity of 95.9%.
`CNC(=O)c1cc(Oc2ccc(NC(=O)Nc3ccc(Cl)c(C(F)(F)F)c3)cc2)ccn1` gave a remaining activity of 99.7%.
For `O=C(O)c1ccc2c3c1cccc3c(=O)n1c3ccccc3nc21`, the remaining activity was 82.7%.
The remaining activity of `Cc1ccc(NC(=O)c2ccc(CN3CCN(C)CC3)cc2)cc1Nc1nc(-c2cccnc2)cs1` is reported as 94.7%.
For `Cn1c2ccccc2c2c3c(c4c5ccccc5n(CCC#N)c4c21)CNC3=O`, the remaining activity was 20.8%.
With `Cc1nc(-c2ccccc2)c(-c2ccncc2)o1` the remaining activity was 104%.

Other studies, line by line
`PhoQ, residues 284 288 289 292 302 303 AGHLVA` has a fold induction of 30.5 (PhoP, residues 12 14 15 18 19 AQALL (Escherichia coli, UniProt P23836); Sort-seq, refers to: YFP reporter; E. coli; PhoQ-PhoP variant library, added: 10 µM Mg2+; baseline: high Mg2+ state, higher = stronger signaling).
